Measurements from different studies.
Lines come from different studies, so protocols differ. “And” joins repeats or separate records; there may be more than shown.
Cell line: DU-145

Compound	read-out	method	medium	time	setting	measurement	result
CC(=O)[C@@H]1CCCN1C(=O)[C@@H]1CCCN1C(=O)[C@H](Cc1ccccc1)NC(=O)[C@@H](NC(=O)[C@@H](NC(=O)[C@@H](NC(=O)[C@@H]1CCCN1C(=O)[C@H](C)NC(=O)OC(C)(C)C)C(C)C)C(C)C)C(C)C	cell growth or viability	SRB				IC50	1020 nM and 1270 nM and 1010 nM
Cc1cc(Oc2nc(N3CC[C@@H](c4ccncc4)C3)ncc2F)[nH]n1	cell proliferation		prostate cancer			IC50	46800 nM
CC(C)C12OC1C1OC13C1(C)CCC4=C(COC4=O)C1CC1OC13C2OC(=O)CCCOC1OC(CO)C(O)C(O)C1O (centres unmarked)	cell growth or viability	XTT		47 h		IC50	440 nM
CC(C)(C)C(=O)OCOP(=O)(OCOC(=O)C(C)(C)C)C1CCCN(O)C1=O (centres unmarked)						log LC50	> -4 log M
CC1CCC2C(C)C(OC(=O)CCC(=O)N3CCN(CC(=O)Nc4ccc([N+](=O)[O-])c(C(F)(F)F)c4)CC3)OC3OC4(C)CCC1C32OO4 (centres unmarked)	cell growth or viability	CCK-8				IC50	> 50000 nM
COc1ccc(C([O-])=CC(=O)c2ccc(C(C)(C)C)cc2)cc1.Cc1ccc(C(C)C)cc1.[Cl-].[Ru+2]	cytotoxicity				dark	IC50	> 10000 nM
C#CCCCC[C@H](C)C[C@@H](C)C(=O)N(C)[C@@H](C)C(=O)N1CCC[C@H]1C(=O)N(C)[C@H](C(=O)N(C)[C@H](C(=O)OC)C(C)C)C(C)C	cell growth or viability	SRB				IC50	1290 nM and 1090 nM and 1480 nM
CC1CCC2C(C)C(OC(=O)CCC(=O)OC3C(C)OC(n4cc(F)c(=O)[nH]c4=O)C3OC(=O)CCC(=O)OC3OC4OC5(C)CCC6C(C)CCC(C3C)C46OO5)OC3OC4(C)CCC1C32OO4 (centres unmarked)	cell growth or viability	CCK-8				IC50	> 50000 nM
C#CCCCC[C@H](C)C[C@@H](C)C(=O)N(C)[C@H](C(=O)N(C)[C@@H](Cc1ccccc1)C(=O)N1CCC[C@H]1C(=O)N1CCC[C@H]1C(C)=O)C(C)C	cell growth or viability	SRB				IC50	983 nM and 1420 nM and 540 nM
C[C@H]1[C@H](OC(=O)CCC(=O)OCCC2CCN(CC(=O)Nc3ccc([N+](=O)[O-])c(C(F)(F)F)c3)CC2)O[C@@H]2O[C@@]3(C)CC[C@H]4[C@H](C)CC[C@@H]1[C@@]24OO3	cell growth or viability	CCK-8				IC50	> 50000 nM
C1N2CN3CN1CP(C2)C3.COc1ccc(C(O)=CC(=O)c2ccc(C(C)(C)C)cc2)cc1.Cc1ccc(C(C)C)cc1.[Ru+2]	cytotoxicity				dark	IC50	490 nM

Repeated from above:
Compound	read-out	method	medium	time	setting	measurement	result
CC(=O)[C@@H]1CCCN1C(=O)[C@@H]1CCCN1C(=O)[C@H](Cc1ccccc1)NC(=O)[C@@H](NC(=O)[C@@H](NC(=O)[C@@H](NC(=O)[C@@H]1CCCN1C(=O)[C@H](C)NC(=O)OC(C)(C)C)C(C)C)C(C)C)C(C)C	cell growth or viability	SRB				IC50	1020 nM and 1270 nM and 1010 nM
Cc1cc(Oc2nc(N3CC[C@@H](c4ccncc4)C3)ncc2F)[nH]n1	cell proliferation		prostate cancer			IC50	46800 nM
